Assay results pooled from the literature.
Protocols differ between the studies behind these lines. “And” joins repeats or separate records; there may be more than shown. Numbers after ± are the reported error.
embR: Transcriptional regulatory protein EmbR (embR, Mycobacterium tuberculosis, UniProt P9WGJ9)
UniProt P21554, sequence (whole entry, unmodified, looked up): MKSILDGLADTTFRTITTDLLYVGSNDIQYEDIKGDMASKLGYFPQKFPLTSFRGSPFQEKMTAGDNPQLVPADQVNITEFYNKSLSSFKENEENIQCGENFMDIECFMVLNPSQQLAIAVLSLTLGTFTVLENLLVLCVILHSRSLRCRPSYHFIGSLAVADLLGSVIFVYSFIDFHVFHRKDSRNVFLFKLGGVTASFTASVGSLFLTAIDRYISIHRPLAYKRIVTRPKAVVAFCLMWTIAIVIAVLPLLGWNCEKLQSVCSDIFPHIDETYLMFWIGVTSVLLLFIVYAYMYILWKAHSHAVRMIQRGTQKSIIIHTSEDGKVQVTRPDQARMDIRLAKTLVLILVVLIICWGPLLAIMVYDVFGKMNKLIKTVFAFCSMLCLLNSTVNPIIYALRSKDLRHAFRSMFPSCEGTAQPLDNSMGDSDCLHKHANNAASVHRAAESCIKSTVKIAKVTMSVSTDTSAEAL
UniProt P9WGJ9, sequence (whole entry, looked up): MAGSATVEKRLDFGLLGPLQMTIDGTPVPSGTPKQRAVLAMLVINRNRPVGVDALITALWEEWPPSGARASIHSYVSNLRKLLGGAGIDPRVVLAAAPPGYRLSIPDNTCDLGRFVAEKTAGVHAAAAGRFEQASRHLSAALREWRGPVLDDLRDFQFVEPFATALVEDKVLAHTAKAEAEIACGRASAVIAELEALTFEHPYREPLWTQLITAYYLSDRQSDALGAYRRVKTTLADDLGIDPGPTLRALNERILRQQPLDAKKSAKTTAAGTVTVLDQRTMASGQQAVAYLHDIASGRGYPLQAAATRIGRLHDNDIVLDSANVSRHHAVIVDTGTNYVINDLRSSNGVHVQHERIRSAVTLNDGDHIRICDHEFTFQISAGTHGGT
UniProt Q02294, sequence (whole entry, looked up): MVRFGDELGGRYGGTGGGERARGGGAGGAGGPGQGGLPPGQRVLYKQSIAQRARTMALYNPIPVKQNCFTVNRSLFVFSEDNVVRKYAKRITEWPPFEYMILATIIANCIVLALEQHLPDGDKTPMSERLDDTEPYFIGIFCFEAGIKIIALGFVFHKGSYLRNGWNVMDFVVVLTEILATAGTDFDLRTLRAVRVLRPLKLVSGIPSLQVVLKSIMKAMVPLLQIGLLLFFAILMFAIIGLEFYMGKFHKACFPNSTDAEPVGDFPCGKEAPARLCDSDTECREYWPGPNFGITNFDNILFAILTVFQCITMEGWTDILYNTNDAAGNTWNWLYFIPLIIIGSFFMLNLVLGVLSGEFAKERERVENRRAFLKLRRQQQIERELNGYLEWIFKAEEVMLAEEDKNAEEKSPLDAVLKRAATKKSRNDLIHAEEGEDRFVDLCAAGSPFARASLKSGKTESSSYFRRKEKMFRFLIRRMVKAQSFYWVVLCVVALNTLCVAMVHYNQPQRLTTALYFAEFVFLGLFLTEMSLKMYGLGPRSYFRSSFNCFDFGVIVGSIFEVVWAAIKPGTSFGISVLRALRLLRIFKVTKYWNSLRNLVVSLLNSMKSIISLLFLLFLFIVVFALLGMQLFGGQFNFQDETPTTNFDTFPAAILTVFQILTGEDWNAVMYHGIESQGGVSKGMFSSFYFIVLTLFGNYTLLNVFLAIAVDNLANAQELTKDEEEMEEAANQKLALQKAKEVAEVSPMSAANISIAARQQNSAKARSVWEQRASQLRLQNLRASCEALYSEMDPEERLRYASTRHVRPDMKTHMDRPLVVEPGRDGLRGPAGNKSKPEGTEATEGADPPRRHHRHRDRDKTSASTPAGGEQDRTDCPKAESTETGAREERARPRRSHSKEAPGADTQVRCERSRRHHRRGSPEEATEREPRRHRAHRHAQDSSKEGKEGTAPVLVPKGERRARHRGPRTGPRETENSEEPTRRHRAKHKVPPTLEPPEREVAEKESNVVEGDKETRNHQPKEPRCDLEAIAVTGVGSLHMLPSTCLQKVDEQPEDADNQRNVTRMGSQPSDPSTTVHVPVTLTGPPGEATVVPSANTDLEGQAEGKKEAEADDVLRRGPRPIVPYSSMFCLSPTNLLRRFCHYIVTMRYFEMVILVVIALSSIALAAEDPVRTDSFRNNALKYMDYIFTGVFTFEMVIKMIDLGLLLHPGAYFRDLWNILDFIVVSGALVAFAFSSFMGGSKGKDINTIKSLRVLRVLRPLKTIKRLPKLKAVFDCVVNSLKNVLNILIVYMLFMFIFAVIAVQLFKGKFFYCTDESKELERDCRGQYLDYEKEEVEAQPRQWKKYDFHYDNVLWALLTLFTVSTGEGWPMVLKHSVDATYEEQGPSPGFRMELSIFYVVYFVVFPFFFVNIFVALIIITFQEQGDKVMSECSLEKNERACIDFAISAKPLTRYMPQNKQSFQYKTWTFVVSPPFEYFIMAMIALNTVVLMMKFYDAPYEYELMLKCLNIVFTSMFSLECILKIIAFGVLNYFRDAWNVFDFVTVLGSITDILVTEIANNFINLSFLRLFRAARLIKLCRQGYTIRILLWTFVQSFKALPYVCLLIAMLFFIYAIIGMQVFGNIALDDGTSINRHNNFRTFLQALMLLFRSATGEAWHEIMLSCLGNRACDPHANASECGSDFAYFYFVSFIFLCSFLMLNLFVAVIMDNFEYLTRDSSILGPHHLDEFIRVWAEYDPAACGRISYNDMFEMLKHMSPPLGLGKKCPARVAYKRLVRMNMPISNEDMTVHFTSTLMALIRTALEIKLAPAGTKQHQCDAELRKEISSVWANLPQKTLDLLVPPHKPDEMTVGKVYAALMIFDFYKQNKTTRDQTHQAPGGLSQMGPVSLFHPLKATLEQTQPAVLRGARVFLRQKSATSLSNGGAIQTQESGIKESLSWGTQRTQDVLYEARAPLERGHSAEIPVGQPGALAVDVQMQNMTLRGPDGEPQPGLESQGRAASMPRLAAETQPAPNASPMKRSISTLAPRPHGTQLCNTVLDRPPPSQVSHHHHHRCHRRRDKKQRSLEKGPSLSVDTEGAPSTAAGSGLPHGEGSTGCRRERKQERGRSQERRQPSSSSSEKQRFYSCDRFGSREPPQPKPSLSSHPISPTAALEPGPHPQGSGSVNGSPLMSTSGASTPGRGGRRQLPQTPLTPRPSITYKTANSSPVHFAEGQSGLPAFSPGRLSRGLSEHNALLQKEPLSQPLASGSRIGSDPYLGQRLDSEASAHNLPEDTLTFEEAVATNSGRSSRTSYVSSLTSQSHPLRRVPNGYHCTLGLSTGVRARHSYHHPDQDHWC
UniProt P42336, sequence (whole entry, looked up): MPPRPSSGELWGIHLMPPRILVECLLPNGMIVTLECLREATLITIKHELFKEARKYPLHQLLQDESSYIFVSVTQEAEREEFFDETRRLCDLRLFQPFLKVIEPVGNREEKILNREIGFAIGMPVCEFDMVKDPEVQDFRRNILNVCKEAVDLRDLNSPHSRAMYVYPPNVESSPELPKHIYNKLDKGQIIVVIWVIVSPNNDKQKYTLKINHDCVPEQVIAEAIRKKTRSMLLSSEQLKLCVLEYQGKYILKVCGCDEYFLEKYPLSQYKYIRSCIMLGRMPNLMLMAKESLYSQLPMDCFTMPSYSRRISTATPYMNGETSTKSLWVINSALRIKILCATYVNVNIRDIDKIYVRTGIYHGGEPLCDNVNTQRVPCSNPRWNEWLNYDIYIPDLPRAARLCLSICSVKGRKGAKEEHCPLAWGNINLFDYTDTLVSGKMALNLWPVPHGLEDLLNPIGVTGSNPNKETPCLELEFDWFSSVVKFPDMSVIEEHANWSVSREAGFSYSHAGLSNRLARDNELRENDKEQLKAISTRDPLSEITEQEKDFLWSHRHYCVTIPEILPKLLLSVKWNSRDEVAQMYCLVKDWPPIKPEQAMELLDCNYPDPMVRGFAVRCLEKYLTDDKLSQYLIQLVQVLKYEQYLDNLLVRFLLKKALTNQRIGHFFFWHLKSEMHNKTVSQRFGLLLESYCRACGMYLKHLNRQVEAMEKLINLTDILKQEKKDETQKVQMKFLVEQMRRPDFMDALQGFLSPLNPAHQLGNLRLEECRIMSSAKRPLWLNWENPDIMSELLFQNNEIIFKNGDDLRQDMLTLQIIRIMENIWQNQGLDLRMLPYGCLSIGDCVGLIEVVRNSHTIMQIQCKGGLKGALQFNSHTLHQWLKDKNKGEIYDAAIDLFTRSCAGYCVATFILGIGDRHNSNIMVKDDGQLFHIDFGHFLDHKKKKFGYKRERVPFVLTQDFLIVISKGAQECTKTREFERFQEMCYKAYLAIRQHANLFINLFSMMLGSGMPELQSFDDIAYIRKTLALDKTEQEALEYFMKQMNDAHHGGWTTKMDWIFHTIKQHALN
UniProt P34975, sequence (whole entry, looked up): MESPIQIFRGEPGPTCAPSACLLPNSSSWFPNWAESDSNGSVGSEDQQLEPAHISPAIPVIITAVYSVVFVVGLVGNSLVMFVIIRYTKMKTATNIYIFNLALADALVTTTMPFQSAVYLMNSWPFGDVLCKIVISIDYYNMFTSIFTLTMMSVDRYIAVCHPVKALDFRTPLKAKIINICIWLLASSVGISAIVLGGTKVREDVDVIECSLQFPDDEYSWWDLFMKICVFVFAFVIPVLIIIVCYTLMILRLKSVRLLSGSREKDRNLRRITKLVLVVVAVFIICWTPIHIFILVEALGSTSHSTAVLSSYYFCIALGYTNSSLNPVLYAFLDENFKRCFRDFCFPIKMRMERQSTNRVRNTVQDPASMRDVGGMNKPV

Cc1sc2c(c1C)C(c1ccc(Cl)cc1)=NC(CC(=O)OC(C)(C)C)c1nnc(C)n1-2 (stereo not shown)  specific binding (Kappa-type opioid receptor (Oprk1, Rattus norvegicus, UniProt P34975); radioligand binding; 1 µM): 96.8%
CCn1cc(C(=O)NC2CCOCC2OCCO)c(=O)c2ccc(C)nc21 (stereo not shown)  ΔTm (3-oxoacyl-[acyl-carrier-protein] synthase 1 (kasA, Mycobacterium tuberculosis, UniProt P9WQD9); thermal stabilization, nanoDSF; 100 µM): -0.57 °C
Nc1ccc(/C=C/C(=O)N2CCc3c(oc4c(-c5ccc(F)cc5)cc(-c5ccc(C(=O)N6CCC(F)(F)CC6)cn5)cc34)C2)cn1  remaining binding (Phosphatidylinositol 4,5-bisphosphate 3-kinase catalytic subunit alpha isoform (PIK3CA, Homo sapiens, UniProt P42336); binding, competition with immobilised ligand; 1 µM): 100%
O=C1NC2(CC2)COc2ncc(F)cc2[C@H]2COCCN2c2ccn3ncc1c3n2  monocyte percentage (Sprague-Dawley rat, female, blood; oral, 5 mg/kg/day, 4 weeks, end of treatment, subacute toxicity): 2.9 ± 0.8%
CC(C)CC(C(=O)N1CC2(CC1C#N)C(=O)Nc1ccccc12)N(C)C(=O)c1cc2c(F)cc(F)c(F)c2[nH]1 (stereo not shown)  remaining activity (Replicase polyprotein 1ab, main protease (rep, Porcine epidemic diarrhea virus, UniProt P0C6Y4); protease activity, inhibitor; 0.1 µM): 90.2%
CCCCCn1cc(C(=O)c2cccc3c2CC(C)(C)C3)c2ccccc21  Emax (Cannabinoid receptor 1 (CNR1, Homo sapiens, UniProt P21554, I267L/L193I/L359V); cAMP inhibition, agonist, CAMYEL BRET biosensor; with: forskolin 10 µM; baseline: reference agonist at wild type): 110 ± 1.5%
CN[C@@H]1[C@H](O)[C@H](NC)[C@H]2O[C@]3(O)[C@H](O[C@@H]2[C@H]1O)O[C@H](C)C[C@H]3NC(=O)Cc1cc(Cl)ccn1  inhibition (Voltage-dependent N-type calcium channel subunit alpha-1B (Cacna1b, Rattus norvegicus, UniProt Q02294); cell-free assay; 10 µM): 2%
CC(C)C[C@H](NC(=O)[C@H](C)NC(=O)[C@H](CCC(=O)O)NC(=O)[C@@H](N)Cc1c[nH]cn1)C(=O)N[C@@H](COP(=O)(O)O)C(=O)N[C@@H](CC(=O)O)C(=O)N1CCC[C@H]1C(=O)N[C@@H](CC(=O)O)C(=O)O  koff (embR; biolayer interferometry; 25 °C): 0.001035 ± 9e-06 s⁻¹
CCOCC1C(c2ccc(Cl)c(Cl)c2)CC2CCC1N2C (stereo not shown)  remaining activity (Sodium-dependent dopamine transporter (SLC6A3, Homo sapiens, UniProt Q01959); dopamine uptake; 0.0001 µM, 0.03333 h, with: [3H]dopamine; baseline: no inhibitor): 105%
CC(C)C[C@H](NC(=O)[C@@H](N)CO)C(=O)N[C@@H](CCC(=O)O)C(=O)N[C@H](C(=O)N[C@H](C(=O)N[C@@H](CCC(=O)O)C(=O)N[C@@H](C)C(=O)N[C@@H](CC(=O)O)C(=O)O)[C@@H](C)OP(=O)(O)O)C(C)C  koff (embR; biolayer interferometry): 0.00031 ± 5e-06 s⁻¹
O=[N+]([O-])CC(c1ccco1)c1c(-c2ccccc2)[nH]c2ccccc12 (stereo not shown)  Emax (Cannabinoid receptor 1 (CNR1, Homo sapiens, UniProt P21554, I245M); Gαi1-γ2 dissociation, BRET): 106 ± 5.95%
CCCCCn1cc(C(=O)c2ccc3ccccc3c2)c2ccccc21  Emax (Cannabinoid receptor 1 (CNR1, Homo sapiens, UniProt P21554, F174A); Gαi1 engagement, agonist, BRET; baseline: reference agonist at wild-type CB1): 89.2 ± 3.2%
Cc1ccc2c(C(C[N+](=O)[O-])c3cccs3)c(-c3ccccc3)[nH]c2c1 (stereo not shown)  Emax (Cannabinoid receptor 1 (CNR1, Homo sapiens, UniProt P21554); β-arrestin recruitment, agonist, luciferase): 100%
CC[C@H](C)[C@H](NC(=O)[C@H](CO)NC(=O)[C@H](CC(N)=O)NC(=O)[C@H](CC(C)C)NC(=O)[C@H](Cc1ccc(O)cc1)NC(=O)[C@H](CCCCN)NC(=O)[C@H](CCCCN)NC(=O)[C@@H](NC(=O)[C@H](C)NC(=O)[C@H](CCSC)NC(=O)[C@H](CCC(N)=O)NC(=O)[C@H](CCCCN)NC(=O)[C@H](CCCNC(=N)N)NC(=O)[C@H](CC(C)C)NC(=O)[C@H](CCCNC(=N)N)NC(=O)[C@@H](NC(=O)[C@H](Cc1ccc(O)cc1)NC(=O)[C@H](CC(N)=O)NC(=O)[C@H](CC(=O)O)NC(=O)[C@@H](NC(=O)[C@H](Cc1ccccc1)NC(=O)[C@@H](NC(=O)[C@H](C)NC(=O)[C@H](CC(=O)O)NC(=O)[C@H](CO)NC(=O)[C@@H](N)Cc1c[nH]cn1)C(C)C)[C@@H](C)O)[C@@H](C)O)C(C)C)C(=O)N[C@@H](CC(C)C)C(=O)N[C@@H](CC(N)=O)C(N)=O  Emax (Pituitary adenylate cyclase-activating polypeptide type I receptor (ADCYAP1R1, Homo sapiens, UniProt P41586, del89-109); cAMP production, agonist; COS-7; 37 °C, AUC over 20 min): 74 ± 3%
COc1ccccc1C(C[N+](=O)[O-])c1c(-c2ccccc2)[nH]c2ccccc12 (stereo not shown)  Emax (Cannabinoid receptor 1 (CNR1, Homo sapiens, UniProt P21554, F191A); Gαi1-γ2 dissociation, BRET): 68 ± 3.69%
CCn1ccc(-c2cc(C(C)NC(=O)c3cc(N4CC5CC4CN5C)ccc3C)c3ccccc3n2)n1 (stereo not shown)  viability (Vero E6; 125 µM): 1.34% and 2.88% and 0.96%

Repeated from above:
CC(C)C[C@H](NC(=O)[C@@H](N)CO)C(=O)N[C@@H](CCC(=O)O)C(=O)N[C@H](C(=O)N[C@H](C(=O)N[C@@H](CCC(=O)O)C(=O)N[C@@H](C)C(=O)N[C@@H](CC(=O)O)C(=O)O)[C@@H](C)OP(=O)(O)O)C(C)C  koff (embR; biolayer interferometry): 0.00031 ± 5e-06 s⁻¹
